# Published values from different studies.
# Each line is one published result; not all experiments were run side by side.
# Organism: Listeria monocytogenes
SMILES,assay,test system,conditions,MIC
CC(C)C[C@H](NC(=O)[C@@H](NC(=O)[C@H](CCCNC(=N)N)NC(=O)[C@H](CCC(N)=O)NC(=O)[C@H](Cc1ccccc1)NC(=O)[C@H](Cc1ccc(O)cc1)NC(=O)[C@H](CC(N)=O)NC(=O)[C@H](Cc1c[nH]c2ccccc12)NC(=O)[C@@H](NC(=O)[C@H](CCCNC(=N)N)NC(=O)[C@H](CCCCN)NC(=O)[C@@H](N)Cc1ccccc1)C(C)C)C(C)C)C(=O)N[C@H](C(=O)N[C@@H](CCCCN)C(=O)N[C@@H](CCCCN)C(=O)N[C@@H](Cc1ccc(O)cc1)C(=O)N[C@@H](C)C(N)=O)C(C)C,broth dilution,KCTC 13064,,50 µM
CC(C)C[C@@H](NC(=O)[C@H](C)NC(=O)CNC(=O)[C@@H](NC=O)C(C)C)C(=O)N[C@@H](C)C(=O)N[C@@H](C(=O)N[C@H](C(=O)N[C@@H](C(=O)N[C@@H](Cc1c[nH]c2ccccc12)C(=O)N[C@H](CC(C)C)C(=O)N[C@@H](Cc1ccc2cc[nH]c2c1)C(=O)N[C@H](CC(C)C)C(=O)N[C@@H](Cc1c[nH]c2ccccc12)C(=O)N[C@H](CC(C)C)C(=O)N[C@@H](Cc1c[nH]c2ccccc12)C(=O)NCCO)C(C)C)C(C)C)C(C)C,broth microdilution,10403S,,2.1 µM
CC[C@H](C)[C@H](N)C(=O)N[C@@H](CCCNC(=N)N)C(=O)N[C@H](C(=O)N[C@@H](Cc1c[nH]c2ccccc12)C(=O)N[C@@H](Cc1ccccc1)C(=O)N[C@H](C(=O)N[C@@H](CCCCN)C(=O)N[C@H](C(=O)N[C@@H](CCCNC(=N)N)C(=O)N[C@@H](CCCCN)C(=O)N[C@@H](Cc1c[nH]c2ccccc12)C(=O)N[C@@H](CCCCN)C(=O)N[C@@H](C)C(=O)N[C@H](C(=O)N[C@@H](Cc1ccc(O)cc1)C(=O)N[C@@H](Cc1c[nH]cn1)C(=O)N[C@H](C(N)=O)[C@@H](C)O)[C@@H](C)CC)C(C)C)[C@@H](C)CC)C(C)C,broth dilution,KCTC 13064,,50 µM
CC[C@H](C)[C@H](NC(=O)[C@H](CCCCN)NC(=O)[C@@H](NC(=O)[C@H](Cc1ccc(O)cc1)NC(=O)[C@H](CCCCN)NC(=O)[C@H](CCCCN)NC(=O)CNC(=O)[C@H](CCCCN)NC(=O)[C@@H](NC(=O)[C@H](C)NC(=O)[C@H](CC(C)C)NC(=O)[C@H](Cc1c[nH]c2ccccc12)NC(=O)CNC(=O)[C@@H](NC(=O)[C@H](Cc1ccccc1)NC(=O)[C@H](CCCCN)NC(=O)[C@H](CC(C)C)NC(=O)[C@H](Cc1ccccc1)NC(=O)[C@H](C)NC(=O)CNC(=O)[C@@H](N)CCSC)C(C)C)[C@@H](C)O)C(C)C)C(=O)N[C@@H](C)C(=O)N[C@@H](Cc1c[nH]c2ccccc12)C(=O)N[C@@H](CC(=O)O)C(=O)N[C@@H](Cc1c[nH]cn1)C(=O)N[C@@H](CCCCN)C(=O)NCC(=O)N[C@H](C(=O)N[C@H](C(=O)N[C@@H](CCSC)C(=O)N[C@@H](CCCCN)C(=O)N[C@@H](Cc1c[nH]c2ccccc12)C(=O)N[C@@H](CC(C)C)C(=O)N[C@@H](CC(N)=O)C(=O)N[C@@H](C)C(=O)NCC(=O)N[C@@H](CCC(N)=O)C(=O)N[C@H](C(=O)N[C@@H](Cc1ccccc1)C(=O)N[C@H](C(=O)N[C@@H](Cc1c[nH]c2ccccc12)C(=O)N[C@H](C(=O)N[C@@H](Cc1ccc(O)cc1)C(=O)N[C@@H](CCC(=O)O)C(=O)N[C@@H](CCC(N)=O)C(=O)N[C@H](C(=O)N[C@@H](CCCCN)C(=O)N[C@@H](CCCCN)C(=O)N[C@@H](CC(C)C)C(=O)N[C@@H](Cc1c[nH]c2ccccc12)C(=O)N[C@H](C(=O)O)[C@@H](C)O)[C@@H](C)CC)C(C)C)[C@@H](C)O)[C@@H](C)O)[C@@H](C)CC)[C@@H](C)O,broth microdilution,CECT 4032,37 °C,2 µg/mL
CC[C@H](C)[C@H](NC(=O)[C@H](CC(C)C)NC(=O)[C@H](CCCCN)NC(=O)[C@@H](NC(=O)[C@H](C)NC(=O)[C@H](CCC(=O)O)NC(=O)[C@H](Cc1c[nH]cn1)NC(=O)[C@@H](NC(=O)[C@H](CCCCN)NC(=O)[C@H](CCC(N)=O)NC(=O)[C@H](Cc1ccccc1)NC(=O)[C@@H](N)C(C)C)[C@@H](C)CC)[C@@H](C)CC)C(N)=O,CLSI broth microdilution,KCTC 3710,"18 h, 37 °C",> 128 µM
CC(C)C[C@@H](NC(=O)[C@H](C)NC(=O)CNC(=O)[C@@H](NC=O)C(C)C)C(=O)N[C@@H](C)C(=O)N[C@@H](C(=O)N[C@H](C(=O)N[C@@H](C(=O)N[C@@H](Cc1c[nH]c2ccccc12)C(=O)N[C@H](CC(C)C)C(=O)N[C@@H](Cc1cccc2[nH]ccc12)C(=O)N[C@H](CC(C)C)C(=O)N[C@@H](Cc1c[nH]c2ccccc12)C(=O)N[C@H](CC(C)C)C(=O)N[C@@H](Cc1c[nH]c2ccccc12)C(=O)NCCO)C(C)C)C(C)C)C(C)C,broth microdilution,10403S,,2.1 µM
CC(C)C[C@H](NC(=O)[C@H](C)NC(=O)[C@@H](NC(=O)[C@H](CCCNC(=N)N)NC(=O)[C@H](CC(C)C)NC(=O)[C@H](Cc1c[nH]c2ccccc12)NC(=O)[C@@H]1CCCN1C(=O)[C@@H](N)CCCCN)C(C)C)C(=O)N[C@@H](CS)C(=O)N1CCC[C@H]1C(=O)NCC(=O)O,broth microdilution,NH1,,128 µM
CC[C@H](C)[C@H](NC(=O)CN)C(=O)NCC(=O)N[C@@H](CCCCN)C(=O)N[C@@H](Cc1ccccc1)C(=O)N[C@@H](CC(C)C)C(=O)N[C@@H](CCCCN)C(=O)N[C@@H](CCCCN)C(=O)N[C@@H](C)C(=O)N[C@@H](CCCCN)C(=O)N[C@@H](CCCCN)C(=O)N[C@@H](Cc1ccccc1)C(=O)NCC(=O)N[C@@H](CCCCN)C(=O)N[C@@H](C)C(=O)N[C@@H](Cc1ccccc1)C(=O)N[C@H](C(=O)N[C@@H](CCCCN)C(=O)N[C@H](C(=O)N[C@@H](CC(C)C)C(=O)N[C@@H](CCCCN)C(=O)N[C@@H](CCCCN)C(N)=O)[C@@H](C)CC)C(C)C,broth dilution,KCTC 13064,,3.1 µM
CC[C@H](C)[C@H](NC(=O)[C@H](CC(C)C)NC(=O)[C@H](CCCCN)NC(=O)[C@@H](NC(=O)[C@H](C)NC(=O)[C@H](CCC(=O)O)NC(=O)[C@H](Cc1c[nH]cn1)NC(=O)[C@@H](NC(=O)[C@H](CCCCN)NC(=O)[C@H](CCC(N)=O)NC(=O)[C@H](Cc1ccccc1)NC(=O)[C@@H](NC(=O)[C@H](CCCCN)NC(=O)[C@@H](N)CCCCN)C(C)C)[C@@H](C)CC)[C@@H](C)CC)C(N)=O,CLSI broth microdilution,KCTC 3710,"18 h, 37 °C",64 µM
CC(C)C[C@@H](NC(=O)[C@H](C)NC(=O)CNC(=O)[C@@H](NC=O)C(C)C)C(=O)N[C@@H](C)C(=O)N[C@@H](C(=O)N[C@H](C(=O)N[C@@H](C(=O)N[C@@H](Cc1c[nH]c2ccccc12)C(=O)N[C@H](CC(C)C)C(=O)N[C@@H](Cc1ccc2[nH]ccc2c1)C(=O)N[C@H](CC(C)C)C(=O)N[C@@H](Cc1c[nH]c2ccccc12)C(=O)N[C@H](CC(C)C)C(=O)N[C@@H](Cc1c[nH]c2ccccc12)C(=O)NCCO)C(C)C)C(C)C)C(C)C,broth microdilution,10403S,,8.5 µM
